Assay results pooled from the literature.
Every numbered part comes from another study and shows a few of its results, in no order. Positions count from the first letter of the parent shown.

Set 1
Target: CCNA2, cyclin fold, Cln2 fusion (human)
Method: yeast growth competition, sequencing
Matrix: yeast
Notes: strong parent motif
Baseline: not given
Direction: higher = stronger binding
Starting sequence: RBL1 docking peptide (human); GSAKRRLFGEDPP; partner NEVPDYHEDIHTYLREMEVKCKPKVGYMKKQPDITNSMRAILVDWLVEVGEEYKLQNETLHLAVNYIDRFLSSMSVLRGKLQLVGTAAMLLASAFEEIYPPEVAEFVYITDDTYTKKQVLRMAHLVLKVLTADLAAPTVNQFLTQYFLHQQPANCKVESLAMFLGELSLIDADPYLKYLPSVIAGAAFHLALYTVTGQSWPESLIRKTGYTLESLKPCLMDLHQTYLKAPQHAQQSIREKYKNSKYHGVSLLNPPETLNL
Change	normalised enrichment score
GKAKRRLFGEDPP [S2K]	6.45
GSAKRRLFGEGPP [D11G]	5.87
GSAKRRLFGQDPP [E10Q]	5.15
GSAKRRLFGDDPP [E10D]	5.96
GSAKRRLFGEDPH [P13H]	6.71
GSAKRRLFGEYPP [D11Y]	6.53
GSAKRRLFGEDLP [P12L]	5.4
GSAKRRYFGEDPP [L7Y]	0.221
GSAKRRPFGEDPP [L7P]	1.15
GRAKRRLFGEDPP [S2R]	6.41
GSAKRALFGEDPP [R6A]	3.74
GSAKRRLWGEDPP [F8W]	3.8
GSVKRRLFGEDPP [A3V]	6.42
YSAKRRLFGEDPP [G1Y]	6.79
GSYKRRLFGEDPP [A3Y]	4
GSAKRRLFGEDPY [P13Y]	5.1
GSAKRRAFGEDPP [L7A]	0.107
GSAKRRLFGEDNP [P12N]	5.43
GSAKRRHFGEDPP [L7H]	-0.344
GSAKRRLFGADPP [E10A]	5.34
GSAKRRTFGEDPP [L7T]	-0.21
GSAKRRLFGEDPW [P13W]	6.52

Set 2
Target: ABI1, truncated, D143A, DHFR fusion (Arabidopsis thaliana)
Method: DHFR PCA, deep sequencing
Matrix: yeast
Notes: methotrexate growth selection, single substitutions
Added: (+)-ABA 0 µM
Baseline: wild-type fitted maximum
Direction: higher = stronger binding
Starting sequence: PYL1, truncated, DHFR fusion (Arabidopsis thaliana); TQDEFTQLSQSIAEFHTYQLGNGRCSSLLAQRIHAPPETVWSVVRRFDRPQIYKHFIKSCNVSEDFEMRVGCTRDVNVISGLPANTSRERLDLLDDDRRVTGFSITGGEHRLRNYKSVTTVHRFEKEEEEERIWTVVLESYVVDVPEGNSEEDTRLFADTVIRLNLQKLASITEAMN
Change	relative binding score [%]
C72I	9.51
L20P	39.9
L8F	24.3
V142Y	-5.16
V100R	-4.25
V121E	3.36
N77F	14.2
R24W	0.907
G108M	-0.032
S104G	-0.0252
G81Q	8.37
A35V	0.503
T173R	-3.72
L28T	5.62
H34I	-2.95

Set 3
Target: RNA binding protein fox-1 homolog 2, RRM domain, GST-SBP tag (RBFOX2, Homo sapiens, UniProt O43251-10, residues 100-194)
Method: RNA Bind-n-Seq
Form: RNA
Matrix: in vitro
Tested at: 365 nM
Notes: natural RNA segment, single round, ends assumed
Baseline: no-protein control
Direction: higher = stronger binding
Constant ends, left off below: GGGAGUUCUACAGUCCGACGAUC … UGGAAUUCUCGGGUGCCAA
Residues (chain): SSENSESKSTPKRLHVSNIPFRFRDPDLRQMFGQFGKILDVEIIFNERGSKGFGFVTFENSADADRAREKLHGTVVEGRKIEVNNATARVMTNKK
Strand	RBNS enrichment (R)
AACCGAGACUCUUCUCUGUUUCCUGCCAAGACCUCAUCUGCACUAAUGCCUUCUCCCUGACCUUGACACUUCCCCCUUUAGCUAUAAAAGCACUUACCAGCCGAACGUGG	0.895
AGGACCUUGCCUCUCUGGAAUCUGUCAACCCAGUUUUGGGCUCCAGGUGGAUGGGUUGCUUUAUAAAUGUGCCUGGUGCAUGAGAAACUCUUGUUUCAGCUCUUGGCCUU	4.43
GCAACAGUGCUCAAAUGUAUGAGUUUGGAGAAGUUAACAAUCAGAAGAACAAAAACUGUAGUGUUUCACCUUUAAAUGCAGUGUUGAAGAGGGAGCCUUUCUCUAAGCCC	0.552
UUCAAAUGUCACCAAUAAAAGUUUUGGCAGGAAGCUUGUUGCGGCAUUGAUCUAACCUUUUUCCCCCCCAUUUCAGUUGCAGUUUUUGUAGAAUGGCUUUUUCUUUUUCC	1.53
UUCUCCAGCUUACCCUAGGGUGACCAAGUAGGGCCUGUCACACCAGGGUGGCGCAGCUUUCUGUGUGAUGCAGAUGUGUCCUGGUUUCGGCAGCGUAGCCAGCUGCUGCU	0.474
GAUGUAAACCACGUGAGAGGAAAAUGUUAAUAAAAAAUGCAAAGCCCCAUCAUUUGCACAAAACUCACCCUGUGGUGUGGAUGUUUGUGUUCGCGGUGGUCCAGGGAAGC	0.26
UCUGCAUAUCAUCUUUCCCACCUAAAAAUGUCUGAAUGCUUACACAAAUAAAUUUUAUAACACGCUUUUUUGCAUACUCCUUGAAAUGUGACUCUUCAGAGGACAGGGCA	0.67
CAGGACCCUUAGAAUCAUAUUUUAGCUGAAGGAUGCUCACUGAUGCGGCCGAGGGCUUGGGAUACUGCACAGUGCUACUGUGUCCUGUGAAGGCUGGUGCACUCAGGGCU	0.5
GCUGAAAGGCCAUGCAAACACAACAAACUAAUAACUCAGUCCCAAAGCACCCUGCAGCCCUGCAGACACCCCCCCCCUCCAAGAGUGGGAGGCAGGGACCACAGAACUGU	0.298
GGUUCCAGUAAUAAGAGUUUUCGAAUAUUUUAAGUAUAACAUCAUGUGAAAAAGACAGGAGAGGUGGAAACUCAGGAGAGAAGGGAAAUACAGCUGGCUGUCUACUACUC	0.47
GUCUCAUUAAAAAUUAGUUUCCAGUUAGGCAGAUGAAUAACACUAUUAAAAAUGCACCCAGUUUUGUAGUCACUUGACUUUUUUUUUUUAUUUAAAUGAAAUUUAAUUUG	0.991
UGUUUCAUUCCCGUGCUUCUGUUCUGAAGUCCUGGAAUACAGUUUUCAGUGUAAUUAAUUCAACUGCACUUAACACUAAUGUCCGUGUUGGUAUAGAAAUGUCUAAAUCC	0.237

Set 4
Target: RING finger protein unkempt homolog, zinc fingers 1-6, SBP tag (UNK, Homo sapiens, UniProt Q9C0B0, residues 30-357)
Chain of UniProt Q9C0B0 (30-357, looked up): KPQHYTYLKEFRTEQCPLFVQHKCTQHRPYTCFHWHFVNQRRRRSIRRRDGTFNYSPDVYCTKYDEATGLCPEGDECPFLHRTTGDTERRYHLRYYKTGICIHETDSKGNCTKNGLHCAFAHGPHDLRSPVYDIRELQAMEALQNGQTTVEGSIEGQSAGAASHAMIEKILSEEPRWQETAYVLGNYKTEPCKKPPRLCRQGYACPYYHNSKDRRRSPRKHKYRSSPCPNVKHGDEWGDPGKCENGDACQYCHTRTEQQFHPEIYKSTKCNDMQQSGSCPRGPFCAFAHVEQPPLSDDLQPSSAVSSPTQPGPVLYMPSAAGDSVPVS
Method: RNA Bind-n-Seq
Form: RNA
Matrix: in vitro
Tested at: 100 nM
Notes: RNA with constant flanks, vertebrate orthologous sites, ends assumed
Baseline: input RNA pool
Direction: higher = stronger binding
Constant ends, left off below: GGGAGUUCUACAGUCCGACGAUC … CAACAGAGGAUUGAGCAUCA
Strand	bound/input enrichment [ratio]
AAGAAUGAAUAGUAUUAAAGAAACAUUCUCGUCUUCCUUUACCUUUAAUCCCCUAAUACCUAGUCUACUUUUUAAAUUUUCAGACUUCACUGCUUUUUGAAUUCAUAAUUCUAAUUUUCA	3.12
UAUUUAAAAUACACUUAAUUGUAUUUAAUGACCUCAUUCCUAGUUCCUUGUUCAUUAAAGUAGCUCAUUUCCAUUAAUGCCAUUUUUAACAGUAUGAACAAAUUGAAGGUUUGUGCAGUA	0.493
GCAAUGAAAAAGCAGCCCUUCUCCCAGCCCCCUUUUCACUAGGAGAUACAAACAUUACAAUAGAAGAGCAAUUAAACUCAAUAAAUUUAUCUUUUCAGGAUGAUCCAGAUUCCAGUACCA	2.95
CAUGUCCUUGCUACUGUGAUACUUAAAACAUGCACAGUACUCAUUUUUCCCAAAUGAUUCUAGUAAUUGCCUAGAAAUAUCUUUCUCUUACCUGUUAUUUAUCAAUUGUUCCCAGUAUUU	1.26
AUUCAAACCUGUGGUACCAUGGCCUCAUGUUGAAGGAGUAGAAGUGGACUUAGAGUCUAUUAGAAGAAAAAACAAGGCCAAAAAUGAACAGGAGCACCAUGCUGGAGGAGAUUCCCAAAA	0.38
AUUUAAAAUGUAUUUAGUUUCACUUAAUAACCUCAUUCCUGAGUUCCUUUUUCAUUGAAGUAGAUUUCUUUUUUAUUACUCCAGUUGUAAUAAUAUGAAUAAACAGGAGGCUUGGGCCAG	0.693
CAAUAAAAUUGGAUGAAAUUUAUAAACAAUUCAAGGCAGUGACUUAAACUUCAUAAAGUAUUGUUGGUUUUUAAGUGGUUUACCUUUAUUUAAGCUGCUACCCUUUGUUAAAUAUGUGGA	0.25
CAUGACCUUGUUACUGUGAUAUUUUAAAUAUCCACAGUACUCACUUUUUCCAAAUGAUCCUAGUAAUUGCCUAGAAAUCUCUCUCUUACCUGUUAUUUAUCAAUUUUUCCCAGUAUUUUU	1.13
UCUGUGUAGGAAUUAGAGUGGGUUCUCCCACUCGUCCUGUCCCAAGGAAGAAAGCUCACAUAGGUUCUUUACACACCUGAUUAUGCUGUUCUGUUUCUGUUUUCUAUUUUUACAUAUACA	0.618
AUCAUCUGACUGGAUGAAGACUGUCCCGAGUUACAGCCAAACCAAUAGCUCCAUGGACUUCAGAAAUUACAUGAUGAGAGAUGAGAAUCUGGAACCACUGCCCCCAAACUGGGAGAUGGC	0.276
AUGUUGUGUCAAAUAUGUCUGCCCAGAUUAGUAUCACCCUAUAAAUAUUAUCAAGAAAUUUACCUAGAGUCUUCUUAGGUAUUGAAUUAUAUAUCCAGCAUUUAAAGUGAAUUUGAGAUG	0.637

Set 5
Target: UBE2I UBC core domain (UniProt P63279)
Method: yeast two-hybrid
Matrix: yeast
Notes: mostly zero background
Baseline: not given
Direction: higher = stronger interaction
B1: TRIM31 RING domain (UniProt Q9BZY9); chain FVNKLQEEVICPICLDILQKPVTIDCGHNFCLKCITQIGETSCGFFKCPLCKTSVRKNAIRF
B2: TRIM54 RING domain (UniProt Q9BYV2); chain SMDNLEKQLICPICLEMFSKPVVILPCQHNLCRKCANDVFQASNPLWQSRGSTTVSSGGRFRCPSCRHEVVLDRHGV
B3: TRIM22 RING domain (UniProt Q8IYM9); chain VKVDIEKEVTCPICLELLTEPLSLDCGHSFCQACITAKIKESVIISRGESSCPVCQTRFQPGNLRP
B4: MKRN2 RING domain (UniProt Q9H000); chain FAFQASQDKVCSICMEVILEKASASERRFGILSNCNHTYCLSCIRQWRCAKQFENPIIKSCPECRVISEFVIPSV
B5: RNF166 RING domain (UniProt Q96A37); chain GDSGLEAQYTCPICLEVYHRPVAIGSCGHTFCGECLQPCLQVPSPLCPLCRLPFDPKKVDK
B6: RNF31 RING domain (UniProt Q96EP0); chain AFLRRLLAQECAVCGWALPHNRMQALTSCECTICPDCFRQHFTIALKEKHITDMVCPACGRPDLTDDTQLL
B7: RNF183 RING domain (UniProt Q96D59); chain EQQGRELEAECPVCWNPFNNTFHTPKMLDCCHSFCVECLAHLSLVTPARRRLLCPLCRQPTVLASGQP
B8: RNF152 RING domain (UniProt Q8N8N0); chain ETLSQDSLLECQICFNYYSPRRRPKLLDCKHTCCSVCLQQMRTSQKDVRCPWCRGVTKLPPGFS
Sequence	lacZ reporter activity
YPEEVDDDLICHICLQALLDPLDTPCGHTYCTLCLTNFLVEKDFCPMDRKPLVLQHCKK (LNX1 RING domain (UniProt Q8TBB1))	0
B1 (TRIM31 RING domain)	0
FVKTVEDKYKCEKCHLVLCSPKQTECGHRFCESCMAALLSSSSPKCTACQESIVKDKVF (TRAF3 RING domain (UniProt Q13114))	0
B2 (TRIM54 RING domain)	0
B3 (TRIM22 RING domain)	0
LGTKLEAKYLCSACRNVLRRPFQAQCGHRYCSFCLASILSSGPQNCAACVHEGIYEEGIS (TRAF2 RING domain (UniProt Q12933))	0
B4 (MKRN2 RING domain)	0
B5 (RNF166 RING domain)	0
B6 (RNF31 RING domain)	0
LDAASGHPLVCPLCHGQYERPCLLDCFHDFCTGCLRGRATDGRLSCPLCQHQTLVKGPSG (Rnf207 RING domain (UniProt Q3V3A7))	0
B7 (RNF183 RING domain)	0
B8 (RNF152 RING domain)	0
